Experimental data collected from several papers.
Each numbered part is a random draw from the data of one study; scales do not carry over between parts. Positions count from the first letter of the parent shown.

Sample 1
Target: RNA binding protein fox-1 homolog 2, RRM domain, GST-SBP tag (RBFOX2, Homo sapiens, UniProt O43251-10, residues 100-194)
Technique: RNA Bind-n-Seq
Molecule type: RNA
Sample: in vitro
Concentration: 365 nM
Setting: natural RNA segment, single round, ends assumed
Reference: no-protein control
Reading: higher = stronger binding
Quantity: RBNS enrichment (R)
Residues (chain): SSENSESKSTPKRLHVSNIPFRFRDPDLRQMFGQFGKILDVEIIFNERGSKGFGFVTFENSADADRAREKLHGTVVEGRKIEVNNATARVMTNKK
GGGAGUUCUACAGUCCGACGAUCUCUUUAUGACAGGGAUCAGUGGCAUUUGUUUCCUAGCAGUAUUUAGCACCUUUUUGCCACCUUGGUGAACAGAAAAUUGUAUUUUCCUGUCUUUCAUGGCUGAAAACAAAUGGAAUUCUCGGGUGCCAA: 0.284
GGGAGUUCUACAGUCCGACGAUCCUCUCCGUCCCAGAGGCCACGAUCCAUCGGGCUGUUCUGAGGACUUCAAGGCAUCUCUUCCCCAUUCACCUAAAACCUCUGGCCUGAACAGAAAAGAGCCGGAGCUCUAAUGGAAUUCUCGGGUGCCAA: 0.416
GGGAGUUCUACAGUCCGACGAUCAUAUGACAGCGCUUUGUAAAGCAGGCCAGUGGCAAGCUGGCCCACAGUAGAGAAACACUGUAGUUCACAGACCAUGCAACCGUGUUUCCACGAGAUGUUAUUACAACAAAUGGAAUUCUCGGGUGCCAA: 0.246
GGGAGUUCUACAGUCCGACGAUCAACACAGGGGCAAAGGAAGACAGGCCUGAUGUGCCCACUCAUCUAUGGACUCAGAGCUGUGUGCUUUGCUCCUGCAUCUUGUUGAGGUGCUGUUCCAGCUUUGCAUUUCUUGGAAUUCUCGGGUGCCAA: 0.423
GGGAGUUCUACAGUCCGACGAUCGUGCCUCUACCAUGUCUGCUGUUUGGGUCUCUGCGCUGUGUGUUCUCAGGUGCAGCCAUGACUCCCCACUCUGUGCAUUCCACCUUCCAGUUGUUUUUCUCUGAGGGGGUUGGAAUUCUCGGGUGCCAA: 0.268
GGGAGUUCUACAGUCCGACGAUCACGCCCCCCAGCGCACAUGUAGUCCUGAGUCCUCCCUGCCUGAGAGGCCACUGGCCCCGCAGCCCUUGGGAGGCCCCCGUGGAUGUGGCCCUGUGUGGGACCACACUGUCUGGAAUUCUCGGGUGCCAA: 0.288
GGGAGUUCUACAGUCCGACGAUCAUAUGGCAGUAAAAAUGUGAUUACUUUGUAUGUACAUUAACCAAAACCAGUGAAGUUUGAUGGACUGUGCAUAGAGUUUUGCAGCUUUUGAGUAGUGUGACAGAGUUUGCUGGAAUUCUCGGGUGCCAA: 0.573
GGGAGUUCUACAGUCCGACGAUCCUGGCACUGUUUACAAGUCUGUUAGCUGCAUAAGCUCAAUAAAAAGUUGGUCUGGGCAUUACAUCCCCUCUGGCAGGCCAAUAGCUGCAUCAAGCUGUUGGGAGAAAUGGUGGAAUUCUCGGGUGCCAA: 0.539
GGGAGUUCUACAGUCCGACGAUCAAUUAGUGGAUAGGUUAUUGUACUUCCAUUCAUACUCUGGGCACUUGUGUUAAAUUGUUCUGUUACACACUUUUGUCUAACCUGUUUUGUUUUUUAUCAUAUAUGCAUUAUGGAAUUCUCGGGUGCCAA: 1.27
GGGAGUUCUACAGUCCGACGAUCAGAGGGUUGCCUAUGGUGGGCACUAGGAAUGAGGUCCCCUGCCUCGAUGCGGGUCCUAGGAGAAAAAGUCCUACUUUUCUGGGUCCCCAGGUGCAGCACCUCCCGGAGACUGGAAUUCUCGGGUGCCAA: 0.412
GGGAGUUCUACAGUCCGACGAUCGGGACCCCUCCUCAUGAACUCUGGAGCCCUGAGAGGAGAGGGGCAGCCCCCCACCUUGUCACCCUCAGGGCUUCCCCUUCUGUCCUCAUUCUUAGAGACUGCUUCUCCCAUGGAAUUCUCGGGUGCCAA: 0.543
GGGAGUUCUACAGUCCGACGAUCAGAACACAUGACUUUUUAAAGAAAAUUACUAAGCAAACUGGAAAAGUGAAGUAUUUUCAUAGUGAUCUGUGCUCCACUUAAUGUUUCCCAGGGACCAUUAGUGUCUUUUUUGGAAUUCUCGGGUGCCAA: 0.546

Sample 2
Target: Interferon regulatory factor 7, full length, phosphomimetic (IRF7, Homo sapiens, UniProt Q92985, residues 1-503, S101K/S471D/S472D/S475D/S476D/S477D/S483D/S484D/S487D)
Technique: protein-binding microarray
Molecule type: double-stranded DNA, one strand shown
Sample: in vitro
Concentration: 250 nM
Setting: 60-bp whole probe
Added: salmon DNA 0.4 mg/ml
Reference: random background probes
Reading: higher = stronger binding
Quantity: log fluorescence
Constant ends, left off below: GCCTAGCAC … GTCTTGATTCGCTTGACGCTGCTG
Residues (chain): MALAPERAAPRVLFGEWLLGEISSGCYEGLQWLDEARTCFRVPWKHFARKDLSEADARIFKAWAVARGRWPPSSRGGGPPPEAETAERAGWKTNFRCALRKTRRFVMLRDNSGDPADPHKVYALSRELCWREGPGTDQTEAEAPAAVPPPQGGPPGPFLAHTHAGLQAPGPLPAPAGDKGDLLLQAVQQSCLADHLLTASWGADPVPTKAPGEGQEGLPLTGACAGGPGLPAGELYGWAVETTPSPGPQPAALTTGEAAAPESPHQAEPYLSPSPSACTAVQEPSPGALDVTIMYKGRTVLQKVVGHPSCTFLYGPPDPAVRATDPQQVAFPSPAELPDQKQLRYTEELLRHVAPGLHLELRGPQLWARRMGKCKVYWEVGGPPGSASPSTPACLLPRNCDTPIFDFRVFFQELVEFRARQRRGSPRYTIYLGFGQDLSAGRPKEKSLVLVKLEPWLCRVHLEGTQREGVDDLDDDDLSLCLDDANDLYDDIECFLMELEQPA
TTTAGATTTTTTTTCCTAATGTGCTAG: 1.14 z-score
TTAGGTTTCCTTCTCCGTTAGTGCTAG: 2.6 z-score
TTAGAACTGGGGTTTTGATTAGTGCTA: 0.0442 z-score
TCAAGTCCCGAGAATGGTACTGTGCTA: 0.0784 z-score
CCAGTGCTGCTTTGTCAAGAGTGCTAG: -0.457 z-score
CTCTCTTCACATATAATTTTGTGCTAG: 0.386 z-score
AACGGTTTCGACTATCGGGACGTGCTA: 6.46 z-score
GACGGTATCCTATTCCTGACGTGCTAG: 0.685 z-score
TAGTTTTTACTTTCTGAATGGTGCTAG: 2.33 z-score
TCACCTTTATATACCTGACTGTGCTAG: 0.705 z-score
CAGGAATGGCACCAGCAGGGGTGCTAG: -0.716 z-score

Sample 3
Target: CCNE1, cyclin fold, Cln2 fusion (human)
Technique: yeast growth competition, sequencing
Sample: yeast
Setting: strong parent motif
Reference: not given
Reading: higher = stronger binding
Quantity: normalised enrichment score
Starting sequence: E2F1 docking peptide (human); PPVKRRLDFETDH; partner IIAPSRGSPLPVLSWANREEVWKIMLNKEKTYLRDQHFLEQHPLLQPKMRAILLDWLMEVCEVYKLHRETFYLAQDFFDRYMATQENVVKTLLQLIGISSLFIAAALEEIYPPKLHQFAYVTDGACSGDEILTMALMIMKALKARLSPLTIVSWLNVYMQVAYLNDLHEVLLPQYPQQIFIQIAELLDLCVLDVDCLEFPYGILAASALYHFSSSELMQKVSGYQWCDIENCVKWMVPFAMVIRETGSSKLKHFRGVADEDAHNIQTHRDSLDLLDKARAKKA
R5G: 0.233
L7F: 0.282
P2M: 5.82
P2V: 5.92
F9V: 0.547
E10Q: 6.16
D8E: 6.29
F9C: 0.388
V3I: 2.68
V3A: 5.34
R6A: 4.35
P2G: 6.74
V3T: 5.47
R5N: 0.337
D12G: 6.63
L7N: -0.392
V3H: 3.92

Sample 4
Target: Prothrombin, mature alpha-thrombin (F2, Homo sapiens, UniProt P00734)
Technique: aptamer microarray, sandwich
Molecule type: DNA with 2'F-ANA
Sample: in vitro
Concentration: 200 nM
Setting: whole 15-mer aptamer, many near background
Added: Cy3 exosite-II aptamer, 400 nM
Reading: higher = stronger binding
Quantity: mean fluorescence intensity
Strand: GGTTGGTGTGGTTGG
2'F-ANA at 1 2 3 4 5 6 7 11 12 13 14 15: 48.6 a.u.
2'F-ANA at 2 3 6 9 11: 627 a.u.
2'F-ANA at 1 2 4 5 7 8 9 10 11 12 13: 50.1 a.u.
2'F-ANA at 4 5 7 9 10 12 13 14 15: 55.3 a.u.
2'F-ANA at 6 7 8 12 13 14 15: 234 a.u.
2'F-ANA at 4 7 8 10 12 13 15: 95.6 a.u.
2'F-ANA at 1 2 3 4 8 10 11 14: 55 a.u.
2'F-ANA at 1 2 4 6 11 13: 78.9 a.u.
2'F-ANA at 4 5 9 11 12 13 14: 62.7 a.u.
2'F-ANA at 2 4 5 7 10 11 13 14 15: 46.9 a.u.
2'F-ANA at 2 4 5 6 7 9 12: 131 a.u.
2'F-ANA at 1 2 3 4 6 10 11 12 15: 66.1 a.u.
2'F-ANA at 2 3 4 5 6 9 13 15: 56.1 a.u.
2'F-ANA at 1 2 3 11 15: 203 a.u.
2'F-ANA at 2 3 4 5 7 8 9 10 12 13 14: 56.1 a.u.
2'F-ANA at 2 3 4 5 6 12 14 15: 69.2 a.u.
2'F-ANA at 1 2 5 7 9 12 13 14: 61.9 a.u.
2'F-ANA at 5 6 7 8 13: 87.5 a.u.
2'F-ANA at 1 2 7 8 9 11 13: 145 a.u.
2'F-ANA at 3 5 6 9 14: 48.5 a.u.
2'F-ANA at 3 4 5 6 8 9 14: 52.2 a.u.
2'F-ANA at 3 5 7 10: 55.3 a.u.
2'F-ANA at 4 5 6 11 12 13 14 15: 50.1 a.u.
2'F-ANA at 1 4 8 11 13 15: 202 a.u.
2'F-ANA at 1 7 8 9 12 13 14 15: 77.1 a.u.

Sample 5
Target: ABI1, truncated, D143A, DHFR fusion (Arabidopsis thaliana)
Technique: DHFR PCA, deep sequencing
Sample: yeast
Setting: methotrexate growth selection, single substitutions
Added: (+)-ABA 0 µM
Reference: wild-type fitted maximum
Reading: higher = stronger binding
Quantity: relative binding score
Starting sequence: PYL1, truncated, DHFR fusion (Arabidopsis thaliana); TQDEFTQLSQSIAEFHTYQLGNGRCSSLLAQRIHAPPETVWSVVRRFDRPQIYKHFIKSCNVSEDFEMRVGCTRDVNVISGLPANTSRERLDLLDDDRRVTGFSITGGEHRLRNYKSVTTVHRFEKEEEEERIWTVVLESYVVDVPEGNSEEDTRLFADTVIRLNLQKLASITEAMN; partner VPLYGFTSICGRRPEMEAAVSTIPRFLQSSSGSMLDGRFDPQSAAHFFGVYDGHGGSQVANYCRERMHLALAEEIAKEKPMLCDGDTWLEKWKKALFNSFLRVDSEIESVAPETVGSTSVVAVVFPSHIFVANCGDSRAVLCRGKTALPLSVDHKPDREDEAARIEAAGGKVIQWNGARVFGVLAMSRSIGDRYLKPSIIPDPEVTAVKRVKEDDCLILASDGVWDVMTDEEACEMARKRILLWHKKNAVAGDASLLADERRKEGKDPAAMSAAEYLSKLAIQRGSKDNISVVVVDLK
V137L: -2.16%
A158M: 10.4%
R49M: 17.2%
W41V: -0.311%
R90D: -2.92%
V142P: -2.61%
E139A: 6.09%
I79R: 0.902%
E152C: 2.41%
V76H: -9.19%
C72T: 6.38%
S59A: 13.1%
E125A: 40.8%
H110W: 78.7%

Mixed results
NDUFB8 (Homo sapiens, UniProt O95169) — cross-linked residues (CYCS (Homo sapiens, UniProt P99999); cross-linking MS; cell fractions; added: DSSO): K176 to K40

Repeated from above (sample 3):
V3A: 5.34
R6A: 4.35
P2G: 6.74
V3T: 5.47
